Measurements pooled from the literature.
Organism: Pseudomonas aeruginosa

CCCCCCCCCCCCCCCCN(C)[C@H](CO)C(=O)N[C@H](C)C(=O)NCC(=O)N(C)[C@@H]1C(=O)N[C@@H](C)C(=O)N[C@H](C(=O)O)Cc2ccc(O)c(c2)-c2cc1ccc2O
MIC (broth microdilution; PAO1 wild type; 24 h, 37 °C, inactive): inactive

COc1ccc2ccc3c(c2c1)C=[N+]1C2CCCCC2[N+]2=Cc4c(C)cccc4[O][Au-]21[O]3.F[P-](F)(F)(F)(F)F (stereo not shown)
MIC (bacterial growth, broth microdilution; carbapenem-resistant; 24 h): > 20 µM

CC(=O)N[C@H](CCCCN)C(=O)N[C@H](CC(C)C)C(=O)N[C@H](CCCCN)C(=O)N[C@H](CO)C(=O)N[C@H](CC(C)C)C(=O)N[C@H](CC(C)C)C(=O)N[C@H](CCCCN)C(=O)N[C@@H](C(=O)N[C@H](CC(C)C)C(=O)N[C@H](CO)C(=O)N[C@H](CCCCN)C(=O)N[C@H](C)C(=O)N[C@H](CCCCN)C(=O)N[C@H](CCCCN)C(=O)N[C@H](CCCCN)C(=O)N[C@H](CCCCN)C(=O)N[C@H](CC(C)C)C(=O)N[C@H](CCCCN)C(=O)N[C@@H](C(=O)N[C@H](CC(C)C)C(=O)N[C@H](CC(C)C)C(=O)N[C@H](CCCCN)C(=O)N[C@H](C)C(=O)N[C@H](CC(C)C)C(=O)N[C@H](CO)C(=O)N[C@H](CCCCN)C(N)=O)[C@H](C)O)[C@H](C)O
MIC (broth microdilution; M2; 24 h, 37 °C): 2.6 µM

CCCCCCCCCCCCCCCC(=O)N(C)[C@H](CO)C(=O)N[C@H](C)C(=O)NCC(=O)N(C)[C@@H]1C(=O)N[C@@H](C)C(=O)N[C@H](C(=O)O)Cc2ccc(O)c(c2)-c2cc1ccc2O[C@@H]1O[C@@H](C)[C@H](O)[C@@H](O)[C@H]1O
MIC (PAO1; cation-adjusted Mueller Hinton II): inactive

COc1c(CC=C(C)C)c(O)cc2c1-c1oc3c(CC=C(C)C)c(O)ccc3c1CO2
MIC (ATCC 10145): 128 µg/mL

CC[C@@H](C)[C@@H](NC(=O)[C@@H](C)NC(=O)[C@@H](CCCCN)NC(=O)[C@@H](CC(C)C)NC(=O)[C@@H](C)NC(=O)[C@H](NC(=O)[C@@H](CCCCN)NC(=O)[C@@H](CC(C)C)NC(=O)[C@H](NC(=O)[C@@H](CCCCN)NC(=O)[C@@H](CCCCN)NC(=O)[C@@H](CCCCN)NC(=O)[C@@H](C)NC(=O)[C@@H](CCCCN)NC(=O)[C@@H](CO)NC(=O)[C@@H](Cc1ccccc1)NC(=O)[C@H](NC(=O)[C@@H](CCCCN)NC(=O)[C@@H](CC(C)C)NC(=O)[C@@H](Cc1ccccc1)NC(=O)[C@@H](CO)NC(=O)[C@@H](CCCCN)NC(=O)[C@@H](Cc1c[nH]c2ccccc12)NC(=O)[C@@H](CCCCN)NC(C)=O)[C@H](C)O)C(C)C)[C@H](C)O)C(=O)N[C@H](CO)C(=O)N[C@H](CCCCN)C(N)=O
MIC (broth microdilution; M2; 24 h, 37 °C): 1.3 µM

c1ccc(CN2CCOCCOCCN(CCCCCCCCCCN3CCOCCOCCN(CCCCCCCCCCN4CCOCCOCCN(Cc5ccccc5)CCOCCOCC4)CCOCCOCC3)CCOCCOCC2)cc1
MIC (FQR): > 100 µM

COc1ccc2ccc3c(c2c1)C=[N+]1C2CCCCC2[N+]2=Cc4ccc(OCCN5CCCCC5)cc4[O][Au-]21[O]3.F[P-](F)(F)(F)(F)F (stereo not shown)
MIC (bacterial growth, broth microdilution; carbapenem-resistant clinical isolate; 24 h): 10 µM

O=C(O)CC[C@@H]1NC(=O)[C@H](CCC(=O)O)NC(=O)[C@H](CCC(=O)O)NC(=O)[C@H](Cc2c[nH]c3ccccc23)NC(=O)[C@H](Cc2c[nH]c3ccccc23)NC(=O)[C@H](Cc2c[nH]c3ccccc23)NC(=O)[C@H](Cc2c[nH]c3ccccc23)NC(=O)[C@H](CCC(=O)O)NC1=O
MIC (broth microdilution; PAO1; 37 °C): > 158 µg/mL

CC1(C)S[C@@H]2[C@H](NC(=O)[C@H](NC(=O)C3=C(O)C(c4ccccc4F)NC3=O)c3ccccc3)C(=O)N2[C@H]1C(=O)O (stereo partly shown)
MIC (broth microdilution; PAO1; added: 2,2'-bipyridyl 30 µg/mL and CCCP 50 µg/mL): 12.5 µg/mL

Repeated from above:
O=C(O)CC[C@@H]1NC(=O)[C@H](CCC(=O)O)NC(=O)[C@H](CCC(=O)O)NC(=O)[C@H](Cc2c[nH]c3ccccc23)NC(=O)[C@H](Cc2c[nH]c3ccccc23)NC(=O)[C@H](Cc2c[nH]c3ccccc23)NC(=O)[C@H](Cc2c[nH]c3ccccc23)NC(=O)[C@H](CCC(=O)O)NC1=O
MIC (broth microdilution; PAO1; 37 °C): > 158 µg/mL
